Measured values pooled from the literature.
Protocols differ between the studies behind these lines. ± marks the error that the study gave.
CYP3A4: Cytochrome P450 3A4 (CYP3A4, Homo sapiens, UniProt P08684)
Sequence of UniProt P08684 (whole entry, looked up): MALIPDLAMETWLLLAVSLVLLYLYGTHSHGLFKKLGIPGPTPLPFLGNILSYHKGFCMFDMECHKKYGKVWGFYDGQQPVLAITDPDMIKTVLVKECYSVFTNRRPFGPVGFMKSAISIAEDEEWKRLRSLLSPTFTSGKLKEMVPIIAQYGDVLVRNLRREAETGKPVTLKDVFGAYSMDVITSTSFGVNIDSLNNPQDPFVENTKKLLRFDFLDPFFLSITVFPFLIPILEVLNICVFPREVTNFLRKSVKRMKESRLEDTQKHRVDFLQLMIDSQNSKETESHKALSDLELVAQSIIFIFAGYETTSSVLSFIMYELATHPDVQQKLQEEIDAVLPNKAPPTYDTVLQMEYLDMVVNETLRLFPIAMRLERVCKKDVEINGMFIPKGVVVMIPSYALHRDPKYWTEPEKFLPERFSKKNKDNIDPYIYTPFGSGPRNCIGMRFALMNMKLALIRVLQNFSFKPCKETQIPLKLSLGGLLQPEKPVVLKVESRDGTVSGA
Sequence of UniProt O15439 (whole entry, looked up): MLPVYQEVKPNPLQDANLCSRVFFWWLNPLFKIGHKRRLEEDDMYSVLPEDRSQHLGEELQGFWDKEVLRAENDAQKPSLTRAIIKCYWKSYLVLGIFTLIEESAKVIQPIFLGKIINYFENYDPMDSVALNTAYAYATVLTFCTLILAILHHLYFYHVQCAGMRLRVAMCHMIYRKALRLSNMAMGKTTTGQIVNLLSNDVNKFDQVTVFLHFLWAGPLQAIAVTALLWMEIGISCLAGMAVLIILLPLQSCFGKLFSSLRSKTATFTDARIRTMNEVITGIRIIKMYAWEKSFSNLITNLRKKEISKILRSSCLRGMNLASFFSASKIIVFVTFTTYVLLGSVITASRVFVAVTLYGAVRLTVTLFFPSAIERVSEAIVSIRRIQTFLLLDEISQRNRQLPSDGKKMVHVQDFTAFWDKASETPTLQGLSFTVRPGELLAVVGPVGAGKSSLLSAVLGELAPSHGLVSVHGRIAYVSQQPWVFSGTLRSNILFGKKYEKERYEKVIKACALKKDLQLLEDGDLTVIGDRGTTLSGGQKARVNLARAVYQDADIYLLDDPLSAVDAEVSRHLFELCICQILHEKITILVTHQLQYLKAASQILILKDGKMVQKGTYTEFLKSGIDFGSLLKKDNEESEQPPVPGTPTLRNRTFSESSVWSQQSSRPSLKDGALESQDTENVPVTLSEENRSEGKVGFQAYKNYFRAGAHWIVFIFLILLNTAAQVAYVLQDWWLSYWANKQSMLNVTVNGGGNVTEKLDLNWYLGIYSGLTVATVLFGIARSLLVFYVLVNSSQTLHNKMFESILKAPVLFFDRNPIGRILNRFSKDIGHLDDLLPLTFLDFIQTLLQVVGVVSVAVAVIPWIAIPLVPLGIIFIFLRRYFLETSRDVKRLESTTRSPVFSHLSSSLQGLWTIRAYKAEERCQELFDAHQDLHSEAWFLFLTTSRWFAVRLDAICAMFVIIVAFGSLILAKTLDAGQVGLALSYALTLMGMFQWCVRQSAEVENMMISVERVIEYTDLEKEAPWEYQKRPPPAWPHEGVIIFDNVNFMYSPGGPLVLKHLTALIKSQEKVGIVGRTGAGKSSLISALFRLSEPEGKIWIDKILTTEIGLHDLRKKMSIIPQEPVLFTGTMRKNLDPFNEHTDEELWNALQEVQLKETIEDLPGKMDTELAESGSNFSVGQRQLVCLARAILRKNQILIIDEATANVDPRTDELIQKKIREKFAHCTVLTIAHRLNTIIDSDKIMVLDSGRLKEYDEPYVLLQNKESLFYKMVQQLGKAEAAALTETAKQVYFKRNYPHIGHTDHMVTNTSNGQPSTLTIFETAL
Sequence of UniProt Q9UNQ0 (whole entry, looked up): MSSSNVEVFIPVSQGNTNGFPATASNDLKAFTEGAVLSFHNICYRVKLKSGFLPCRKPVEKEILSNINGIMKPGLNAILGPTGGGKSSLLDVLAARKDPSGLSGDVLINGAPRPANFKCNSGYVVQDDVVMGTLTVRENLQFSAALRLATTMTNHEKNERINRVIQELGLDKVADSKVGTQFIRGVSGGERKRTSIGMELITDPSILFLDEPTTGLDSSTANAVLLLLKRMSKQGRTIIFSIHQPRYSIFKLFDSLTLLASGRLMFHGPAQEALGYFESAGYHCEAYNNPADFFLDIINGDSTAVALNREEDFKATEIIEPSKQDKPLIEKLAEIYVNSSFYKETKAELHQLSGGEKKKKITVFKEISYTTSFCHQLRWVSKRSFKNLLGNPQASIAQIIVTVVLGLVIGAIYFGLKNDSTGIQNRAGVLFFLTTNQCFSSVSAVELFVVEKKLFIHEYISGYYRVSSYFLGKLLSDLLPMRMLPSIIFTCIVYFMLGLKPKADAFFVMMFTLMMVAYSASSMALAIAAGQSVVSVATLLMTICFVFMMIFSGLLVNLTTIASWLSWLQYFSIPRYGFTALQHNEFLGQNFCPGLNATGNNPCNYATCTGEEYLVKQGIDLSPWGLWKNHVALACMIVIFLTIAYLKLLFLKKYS
Sequence of UniProt P08835 (whole entry, looked up): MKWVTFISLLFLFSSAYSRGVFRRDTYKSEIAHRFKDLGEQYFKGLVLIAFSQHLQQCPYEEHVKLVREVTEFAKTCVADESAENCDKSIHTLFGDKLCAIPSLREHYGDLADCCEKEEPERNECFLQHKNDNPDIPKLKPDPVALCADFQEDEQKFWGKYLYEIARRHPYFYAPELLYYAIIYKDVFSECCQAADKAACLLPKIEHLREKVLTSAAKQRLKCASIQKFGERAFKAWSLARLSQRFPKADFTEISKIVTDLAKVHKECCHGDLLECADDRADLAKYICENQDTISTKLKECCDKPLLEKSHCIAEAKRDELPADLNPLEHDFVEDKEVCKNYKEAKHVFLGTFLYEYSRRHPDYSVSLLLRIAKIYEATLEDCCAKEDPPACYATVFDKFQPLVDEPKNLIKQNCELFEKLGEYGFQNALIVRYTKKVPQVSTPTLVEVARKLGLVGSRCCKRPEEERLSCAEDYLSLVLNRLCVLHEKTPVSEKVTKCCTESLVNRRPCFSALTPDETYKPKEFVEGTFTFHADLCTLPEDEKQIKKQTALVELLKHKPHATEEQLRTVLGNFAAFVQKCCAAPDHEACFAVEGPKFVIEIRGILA
Sequence of UniProt P61073 (whole entry, looked up): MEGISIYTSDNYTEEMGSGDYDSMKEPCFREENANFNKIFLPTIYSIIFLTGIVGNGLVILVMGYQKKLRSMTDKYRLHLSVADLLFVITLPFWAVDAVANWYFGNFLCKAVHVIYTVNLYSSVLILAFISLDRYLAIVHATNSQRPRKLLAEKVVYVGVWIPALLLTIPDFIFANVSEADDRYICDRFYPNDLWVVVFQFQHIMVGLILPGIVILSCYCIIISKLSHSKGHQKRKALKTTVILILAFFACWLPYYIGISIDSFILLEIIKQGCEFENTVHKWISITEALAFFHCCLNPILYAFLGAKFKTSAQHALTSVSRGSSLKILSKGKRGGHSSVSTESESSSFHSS

SMILES	target	test	system	conditions	scale	measurement	value
CC(=O)OC1(C(C)=O)CCC2C3C=C(CO)C4=CC(=O)CCC4(C)C3CCC21C (stereo not shown)	CYP3A4	substrate		substrate inhibition model		Ki	388 ± 207 µM
CC(C)(O)c1ccccc1CC[C@H](c1cccc(/C=C/c2ccc3ccc(Cl)cc3n2)c1)S(=O)(=O)CC1(CC(=O)O)CC1	CYP3A4	inhibitor		2 µM, pH 7.4		inhibition	< 0%
C=C1CCC2[C@](C)(CO)[C@H](O)CC[C@@]2(C)[C@@H]1/C=C/C1=CCOC1=O (stereo partly shown)	Albumin (ALB, Homo sapiens, UniProt P02768)	HPLC-based	human plasma			fraction unbound	0.07
CC(C)(O)c1ccccc1CC[C@H](c1cccc(/C=C/c2ccc3ccc(Cl)cc3n2)c1)[S+]([O-])CC1(CC(=O)O)CC1 (stereo partly shown)	CYP3A4		human liver microsomes	10 µM, pH 7.4, together with: midazolam		inhibition	48.6%
O=C(NCCCCCn1ccc2ccc(F)cc21)Oc1cccc(F)c1	Albumin (ALB, Sus scrofa, UniProt P08835)		porcine protein solution 17.5 mg/mL in PBS	20 µM, 0.5 h, 37 °C		remaining parent compound	76 ± 4%
O=C1Cc2cc(CCN3CCN(C4=NS(=O)(=O)c5ccccc54)CC3)c(Cl)cc2N1	CYP3A4	inhibitor		10 µM, pH 7.4		inhibition	6.74%
O=C(NC(CSC(Cc1ccccc1)C(=O)NCCCc1cccnc1)Cc1ccc(-c2ccccc2)cc1)c1cccnc1 (stereo not shown)	CYP3A4	thermal stability				ΔTm	3 °C
Cc1c(NC(=O)c2ccc3c(c2)CC[C@@H]2C[C@@](O)(C(F)(F)F)CC[C@@]32Cc2ccccc2)ccc[n+]1[O-]	CYP3A4/5, human	time-dependent inhibitor, refers to: 1'-hydroxymidazolam	pooled human liver microsomes	saturation not achieved, together with: midazolam 23 µM		Ki	4 µM
N=C(N)NCCC[C@@H]1NC(=O)[C@H](CCCNC(=N)N)NC(=O)[C@H](CCCNC(=N)N)NC(=O)[C@H](CCCNC(=N)N)NC(=O)[C@H](Cc2c[nH]c3ccccc23)NC(=O)[C@H](CCCNC(=N)N)NC(=O)[C@H](CCCNC(=N)N)NC(=O)[C@@H](N)CCCCn2cc(nn2)C[C@@H](C(N)=O)NC1=O	trypsin	substrate, HPLC		pH 7.4, 37 °C		complete degradation time	85 to 110 min
CC[C@H](C)[C@@H]1NC(=O)[C@H](CCC(N)=O)NC(=O)[C@H](CCC(N)=O)NC(=O)[C@@H]2CCCN2C(=O)[C@@H]2CCCN2C(=O)[C@H](CO)NC(=O)[C@H](CCSC)NC(=O)[C@H](CCCNC(=N)N)NC(=O)[C@H]([C@@H](C)O)NC(=O)[C@H]([C@@H](C)O)NC(=O)[C@H](Cc2ccccc2)NC(=O)[C@@H](NC(=O)[C@@H](CO)NC(=O)[C@@H](Cc2ccccc2)NC(=O)[C@@H](CC(C)C)NC(=O)[C@@H]2CCCN2C(=O)[C@@H](CC(C)C)NC(=O)[C@@H](Cc2ccccc2)NC(=O)[C@@H](CCC(=O)O)NC(=O)[C@@H](C)NC(=O)[C@@H](Cc2ccccc2)NC(=O)[C@H](N)C(C)C)CSSC[C@@H](C(=O)N[C@@H](CC(C)C)C(=O)N[C@@H](CC(N)=O)C(N)=O)NC1=O	chymotrypsin	substrate, RP-HPLC		pH 8.0, 25 °C		time to complete cleavage	≤ 4 h
[64Cu+2].c1ccc(CNCc2ccc(CN3CCCNCCNCCCNCC3)cc2)nc1	CXCR4		NOD/SCID mouse, U87 and U87-stb-CXCR4 xenografts, pancreas	iv, 90 min, no blocking dose, ex vivo		tissue uptake	1.48 ± 0.09 %ID/g
O=C(NC(CSC(Cc1ccccc1)C(=O)NCCCc1cccnc1)Cc1c[nH]c2ccccc12)c1cccnc1 (stereo not shown)	CYP3A4			16 µM, 2 h, together with: 10 mM H2O2	reference: ligand-free enzyme	heme destroyed	29%
Cc1cc(C)c(-c2cc(C)c(OP(=O)([O-])OCCC[C@H](C(=O)[O-])N3CCN(CC(=O)[O-])CCN(CP(=O)([O-])O)CCN(CC(=O)[O-])CC3)cc2C)c(C)c1.[Gd+3]	Albumin (ALB, Homo sapiens, UniProt P02768)	albumin binding, variable temperature NMRD fit	albumin-bound complex	0.1 mM, pH 7.4, 37 °C, fit 5-35 °C data, together with: HSA 0.66 mM		water residency time	1.4 ns
CNC(=O)Oc1cc(C)c(S(C)(=O)=O)c(C)c1	CYP3A4	inhibitor		2 µM, pH 7.4		inhibition	4.83%
CCN(CC)CCOc1ccc(-c2nnn(Cc3ccc(OC)cc3)c2N)cc1	CYP3A			concentration not given		inhibition	no inhibition
C=CCc1ccc(O)c(-c2cc(CC=C)cc(O)c2O)c1	ABCG2 (Homo sapiens, UniProt Q9UNQ0)	mitoxantrone transport, inhibitor		50 µM, 30 min, together with: mitoxantrone 5 µM	reference: Ko143 0.5 µM	inhibition	6.9 ± 3.8%
CC(CCC(=O)NCC(=O)O)C1CCC2C3CCC4CC(OC5OC(C(=O)O)C(O)C(O)C5O)CCC4(C)C3CC(O)C12C (stereo not shown)	ABCC4 (Homo sapiens, UniProt O15439)	substrate, membrane vesicle uptake		0.2 µM, 10 min	reference: ATP over AMP	vesicle uptake ratio	~4
CNC(=O)Oc1cc(C)c([S+](C)[O-])c(C)c1 (stereo not shown)	CYP3A4		human liver microsomes	10 µM, pH 7.4, together with: midazolam		inhibition	< 0%
CC#N.O=S(=O)([O-])C(F)(F)F.O=S(=O)([O-])C(F)(F)F.Oc1ccc(O)c(CN(CCN(Cc2ccccn2)Cc2ccccn2)Cc2ccccn2)c1.[Mn+2]	Mn(II) complex, metal-bound quinol	potentiometric pH titration		25 °C, 100 mM KCl		pKa	6.3
CC(C)C[C@H](NC(=O)[C@H](C)NC(=O)[C@H](CC(C)C)NC(=O)[C@@H](NC(=O)CNC(=O)[C@H](CC(C)C)NC(=O)[C@@H](N)Cc1ccccc1)C(C)C)C(=O)N[C@@H](CC(C)C)C(=O)NCC(=O)N[C@@H](Cc1ccc(O)cc1)C(=O)N[C@@H](CC(C)C)C(=O)N[C@@H](C)C(=O)N[C@H](C(=O)N[C@@H](CCCNC(=N)N)C(=O)N1CCC[C@H]1C(=O)N[C@@H](Cc1ccccc1)C(=O)N[C@@H](CC(C)C)C(=O)N1CCC[C@H]1C(=O)N[C@@H](CCCCN)C(=O)N[C@@H](CCCCN)C(=O)N[C@@H](CCCCN)C(=O)N[C@@H](CCC(N)=O)C(=O)N[C@@H](CCC(N)=O)C(=O)N[C@@H](CCCCN)C(N)=O)C(C)C	chymotrypsin	proteolytic stability, analytical HPLC		450 µM, 22 °C, together with: chymotrypsin 0.001 mg/mL		time to full cleavage	100 min
N=C(N)NCCC[C@@H](NC(=O)[C@H](N)Cc1c[nH]c2ccccc12)C(=O)N[C@H](CCCCN)C(=O)N[C@H](Cc1c[nH]c2ccccc12)C(=O)N[C@H](CCCNC(=N)N)C(=O)N[C@H](CCCCN)C(=O)N[C@H](Cc1c[nH]c2ccccc12)C(=O)N[C@H](CCCNC(=N)N)C(=O)N[C@H](CCCCN)C(=O)N[C@H](Cc1c[nH]c2ccccc12)C(=O)N[C@H](CCCNC(=N)N)C(=O)N[C@H](CCCCN)C(N)=O	trypsin	RP-HPLC		6 h, 37 °C		remaining peptide	> 90%
N=C(N)NCCC[C@@H]1NC(=O)[C@H](CCCNC(=N)N)NC(=O)[C@H](CCCNC(=N)N)NC(=O)[C@H](CCCNC(=N)N)NC(=O)[C@H](Cc2c[nH]c3ccccc23)NC(=O)[C@H](CCCNC(=N)N)NC(=O)[C@H](CCCNC(=N)N)NC(=O)[C@@H](N)CCCn2cc(nn2)C[C@@H](C(N)=O)NC1=O	trypsin	substrate, HPLC		pH 7.4, 37 °C		complete degradation time	85 to 110 min
CCCS(=O)(=O)c1ccc2[nH]c(NC(=O)OC)nc2c1	CYP3A4	inhibitor		2 µM, pH 7.4		inhibition	7.51%
Cc1cc(C)c(-c2cc(C)c(OP(=O)([O-])OCCC[C@H](C(=O)[O-])N3CCN(CC(=O)[O-])CCN(CC(=O)[O-])CCN(CC(=O)[O-])CC3)cc2C)c(C)c1.[Gd+3]	Albumin (ALB, Homo sapiens, UniProt P02768)	albumin binding, variable temperature NMRD fit	albumin-bound complex	0.1 mM, pH 7.4, 37 °C, fit 5-35 °C data, together with: HSA 0.66 mM		water residency time	108 ns
CN1C(=O)[C@@H](Cc2ccc(O)cc2)NC(=O)CNC(=O)[C@H](Cc2ccc3ccccc3c2)NC(=O)[C@H](CCCNC(=N)N)NC(=O)[C@H]1CCCNC(=O)c1ccc(CNC(=O)CN2CCN(CC(=O)O)CCN(CC(=O)O)CCN(CC(=O)O)CC2)cc1 [gallium-68 labelled]	CXCR4 (Homo sapiens, UniProt P61073)	PET	human, brain background			SUVmax	0.21

A few entries again:
SMILES	target	test	system	conditions	scale	measurement	value
CC[C@H](C)[C@@H]1NC(=O)[C@H](CCC(N)=O)NC(=O)[C@H](CCC(N)=O)NC(=O)[C@@H]2CCCN2C(=O)[C@@H]2CCCN2C(=O)[C@H](CO)NC(=O)[C@H](CCSC)NC(=O)[C@H](CCCNC(=N)N)NC(=O)[C@H]([C@@H](C)O)NC(=O)[C@H]([C@@H](C)O)NC(=O)[C@H](Cc2ccccc2)NC(=O)[C@@H](NC(=O)[C@@H](CO)NC(=O)[C@@H](Cc2ccccc2)NC(=O)[C@@H](CC(C)C)NC(=O)[C@@H]2CCCN2C(=O)[C@@H](CC(C)C)NC(=O)[C@@H](Cc2ccccc2)NC(=O)[C@@H](CCC(=O)O)NC(=O)[C@@H](C)NC(=O)[C@@H](Cc2ccccc2)NC(=O)[C@H](N)C(C)C)CSSC[C@@H](C(=O)N[C@@H](CC(C)C)C(=O)N[C@@H](CC(N)=O)C(N)=O)NC1=O	chymotrypsin	substrate, RP-HPLC		pH 8.0, 25 °C		time to complete cleavage	≤ 4 h
CC(C)C[C@H](NC(=O)[C@H](C)NC(=O)[C@H](CC(C)C)NC(=O)[C@@H](NC(=O)CNC(=O)[C@H](CC(C)C)NC(=O)[C@@H](N)Cc1ccccc1)C(C)C)C(=O)N[C@@H](CC(C)C)C(=O)NCC(=O)N[C@@H](Cc1ccc(O)cc1)C(=O)N[C@@H](CC(C)C)C(=O)N[C@@H](C)C(=O)N[C@H](C(=O)N[C@@H](CCCNC(=N)N)C(=O)N1CCC[C@H]1C(=O)N[C@@H](Cc1ccccc1)C(=O)N[C@@H](CC(C)C)C(=O)N1CCC[C@H]1C(=O)N[C@@H](CCCCN)C(=O)N[C@@H](CCCCN)C(=O)N[C@@H](CCCCN)C(=O)N[C@@H](CCC(N)=O)C(=O)N[C@@H](CCC(N)=O)C(=O)N[C@@H](CCCCN)C(N)=O)C(C)C	chymotrypsin	proteolytic stability, analytical HPLC		450 µM, 22 °C, together with: chymotrypsin 0.001 mg/mL		time to full cleavage	100 min
O=C(NCCCCCn1ccc2ccc(F)cc21)Oc1cccc(F)c1	Albumin (ALB, Sus scrofa, UniProt P08835)		porcine protein solution 17.5 mg/mL in PBS	20 µM, 0.5 h, 37 °C		remaining parent compound	76 ± 4%
N=C(N)NCCC[C@@H]1NC(=O)[C@H](CCCNC(=N)N)NC(=O)[C@H](CCCNC(=N)N)NC(=O)[C@H](CCCNC(=N)N)NC(=O)[C@H](Cc2c[nH]c3ccccc23)NC(=O)[C@H](CCCNC(=N)N)NC(=O)[C@H](CCCNC(=N)N)NC(=O)[C@@H](N)CCCCn2cc(nn2)C[C@@H](C(N)=O)NC1=O	trypsin	substrate, HPLC		pH 7.4, 37 °C		complete degradation time	85 to 110 min
